Published values gathered from unrelated publications.
Lines come from different studies, so protocols differ. ± marks the error that the study gave.

Structure (SMILES) | test | system | setting | quantity | result
O[C@H]1CCCN[C@@H]1CCCn1cnc2c(Cl)c(Cl)ccc21 |  | human, plasma | oral, 100 mg single dose, solution, geometric mean | AUC(0-last) | 275 ng·h/mL
CCCCCCCCCC(=O)N[C@@H](Cc1c[nH]c2ccccc12)C(=O)N[C@H](CC(N)=O)C(=O)N[C@@H](CC(=O)O)C(=O)N[C@@H]1C(=O)NCC(=O)N[C@@H](CCCN)C(=O)N[C@@H](CC(=O)O)C(=O)N[C@H](C)C(=O)N[C@@H](CC(=O)O)C(=O)NCC(=O)N[C@H](CO)C(=O)N[C@@H]([C@H](C)CC(=O)O)C(=O)N[C@@H](CC(=O)c2ccccc2N)C(=O)O[C@@H]1C |  | male Wistar rat, plasma | subcutaneous, 50 mg/kg | total clearance | 1 mL/min/kg
CCN(CC)C(=S)SC |  | human | oral | oral clearance (CL/F) | 0.58 L/h
CC(=O)N[C@H](CCCCNC(=O)C(C)F)C(=O)N[C@@H](CS)C(=O)N[C@@H](CS)C(=O)N[C@@H](CCC(=O)O)C(=O)N[C@@H](Cc1c[nH]cn1)C(=O)N[C@H](Cc1ccccc1)C(=O)N[C@@H](CCCNC(=N)N)C(=O)N[C@@H](Cc1c[nH]c2ccccc12)C(=O)N[C@@H](CS)C(=O)N[C@@H](CCCNC(=N)N)C(=O)N1CCC[C@H]1C(=O)N[C@H](C(N)=O)C(C)C (stereo partly shown) [fluorine-18 labelled] |  | C57BL/6 mice, male, B16-F10 tumour, heart | intravenous, 1 h | tissue uptake | 0.55 ± 0.03 %ID/g
C[C@H](Cn1cnc2c(N)ncnc21)OCP(=O)(O)O | two-compartment model | Macaca nemestrina, male | subcutaneous, 10.6 mg/kg | distribution half-life (t1/2,alpha) | 1.11 h
CC[C@H](C)[C@H](NC(=O)[C@H](CO)NC(=O)[C@H](C)NC(=O)[C@@H](NC(=O)CNC(=O)[C@H](CO)NC(=O)[C@@H](NC(=O)[C@@H](NC(=O)[C@H](Cc1c[nH]cn1)NC(=O)[C@@H]1CCCN1C(=O)[C@@H](NC(=O)[C@H](CC(C)C)NC(=O)[C@H](CO)NC(=O)[C@H](CC(C)C)NC(=O)[C@@H](N)Cc1ccccc1)[C@@H](C)CC)[C@@H](C)CC)C(C)C)C(C)C)C(=O)N[C@@H](C)C(=O)N[C@@H](CCCCN)C(=O)N[C@@H](Cc1c[nH]cn1)C(=O)N[C@@H](Cc1ccccc1)C(N)=O | UPLC-MS/MS | rat plasma | 0.2 µg/mL, three freeze-thaw cycles | concentration found | 207 ng/mL
CN(C(=O)n1cnc(-c2ccc[n+]([O-])c2)c1)C1CCCCC1 |  | SHRSP rat | oral, 30 mg/kg daily, 45 days, stroke-prone high-salt diet | mortality | 43.3%
CC[C@H](C)[C@H](NC(=O)[C@@H](N)Cc1ccccc1)C(=O)NCC(=O)N[C@H](C(=O)N[C@@H](CC(C)C)C(=O)N[C@H](C(=O)N1CCC[C@H]1C(=O)N[C@@H](CC(C)C)C(=O)N[C@@H](C)C(=O)N[C@@H](CC(C)C)C(=O)NCC(=O)N[C@@H](C)C(=O)N[C@@H](CC(C)C)C(=O)N[C@H](C(=O)N[C@@H](CCCCN)C(=O)N[C@@H](CC(C)C)C(=O)N[C@@H](Cc1ccccc1)C(=O)N[C@@H](CCCCN)C(N)=O)[C@@H](C)O)[C@@H](C)CC)[C@@H](C)O | reversed-phase HPLC |  | hydrophobicity measure | retention time | 10.6 min
CC[C@H](C)[C@H](NC(=O)[C@H](CC(C)C)NC(=O)[C@H](Cc1c[nH]c2ccccc12)NC(=O)[C@H](CCC(N)=O)NC(=O)[C@@H](NC(=O)[C@H](Cc1ccccc1)NC(=O)[C@H](C)NC(=O)[C@H](CCCCNC(=O)COCCOCCNC(=O)COCCOCCNC(=O)CC[C@H](NC(=O)CCCCCCCCCCCCCCCCCCC(=O)O)C(=O)O)NC(=O)[C@H](CCC(N)=O)NC(=O)[C@H](C)NC(=O)[C@@H](NC(=O)[C@H](CCCCN)NC(=O)[C@H](CC(=O)O)NC(=O)[C@H](CC(C)C)NC(=O)C(C)(C)NC(=O)[C@@H](NC(=O)[C@H](CO)NC(=O)[C@H](Cc1ccc(O)cc1)NC(=O)[C@H](CC(=O)O)NC(=O)[C@H](CO)NC(=O)[C@@H](NC(=O)[C@H](Cc1ccccc1)NC(=O)[C@@H](NC(=O)CNC(=O)[C@H](CCC(=O)O)NC(=O)C(C)(C)NC(=O)[C@@H](N)Cc1ccc(O)cc1)[C@@H](C)O)[C@@H](C)O)[C@@H](C)CC)[C@@H](C)CC)C(C)C)C(=O)N[C@@H](C)C(=O)NCC(=O)NCC(=O)N1CCC[C@H]1C(=O)N[C@@H](CO)C(=O)N[C@@H](CO)C(=O)NCC(=O)N[C@@H](C)C(=O)N1CCC[C@H]1C(=O)N1CCC[C@H]1C(=O)N1CCC[C@H]1C(=O)N[C@@H](CO)C(N)=O |  | human, severe hepatic impairment | subcutaneous, 5 mg | tmax | 24 h
CN[C@@](C)(C[18F])C(=O)O |  | SCID mouse U87 xenograft | 120 min post injection | tumour uptake | 5.1 ± 1.1 %ID/g
CC[C@H](C)[C@H](NC(=O)[C@@H](N)CCCNC(=N)N)C(=O)N[C@H](C(=O)N1CCC[C@H]1C(=O)N[C@@H](C)C(N)=O)C(C)C |  | human, plasma | intravenous, 3 mg/kg, single dose, healthy volunteers | Cmax | 14400 ng/mL
CCCCCCCC[N+](C)(C)CCCCCCCC | ultrafiltration | human serum |  | unbound fraction in blood | 0.098
O=C(CC(=O)c1ccccc1)c1ccccc1 |  | Sprague-Dawley rat, male, plasma | oral, 250 mg/kg, regular emulsion | absolute bioavailability | 7.38 ± 1.66%
Cc1cc(C)c(/C=C2\C(=O)Nc3ccccc32)[nH]1 |  | zebrafish embryos | 48 h | EC100 toxicity | 5 µM
C#Cc1cccc2c1[nH]c1cnc(C(=O)OC(C)(C)C)cc12 |  | Wistar rat, brain | intraperitoneal, 10 mg/kg single dose on day 4, 20 min after dose, vehicle for 3 days before, together with: diazepam 2 mg/kg | brain concentration | 64.8 ± 15.6 nM
N#C[C@]1(CO)O[C@@H](n2cc(F)c3c(N)ncnc32)C[C@@H]1O |  | HBV-infected human-liver-chimeric mice | oral, 1 mg/kg/day, 14 days | body weight change | no effect
Cc1c(P(=S)(c2ccccc2)c2ccccc2)n2ccccc2[n+]1C/C=C/c1ccccc1 |  | mouse, brain | intraperitoneal, 10 mg/kg, 30 min | concentration | 25 ng/g
CC(C)C[C@H](NC(=O)[C@H](CC(=O)O)NC(=O)CNC(=O)[C@H](CCCNC(=N)N)NC(=O)[C@H](CC(C)C)NC(=O)[C@H](CC(N)=O)NC(=O)[C@@H]1CCCN1C(=O)[C@@H](NC(=O)[C@H](C)NC(=O)[C@H](CC(N)=O)NC(=O)CCOCCOCCOCCOCCOCCOCCOCCOCCOCCOCCOCCOCCOCCOCCOCCOCCOCCOCCOCCOCCOCCOCCOCCOCCOCCOCCOCCOCCNC(=O)CN1CCN(CC(=O)O)CCN(CC(=O)O)CC1)C(C)C)C(=O)N[C@@H](CCC(N)=O)C(=O)N[C@H](C(=O)N[C@@H](CC(C)C)C(=O)N[C@@H](C)C(=O)N[C@@H](CCC(N)=O)C(=O)N[C@@H](CCCNC(=N)N)C(=O)N[C@H](C(=O)N[C@@H](C)C(=O)N[C@@H](CCCNC(=N)N)C(=O)N[C@H](C(=O)NCCOCCOCCOCCOCCOCCOCCOCCOCCOCCOCCOCCOCCOCCOCCOCCOCCOCCOCCOCCOCCOCCOCCOCCOCCOCCOCCOCCOCCC(N)=O)[C@@H](C)O)C(C)C)C(C)C [fluorine-18 labelled] |  | female athymic nude mice, DX3puroβ6/DX3puro xenografts, muscle | intravenous, 0.175 nmol | tissue uptake | ≤ 0.9 %ID/g
C=C(C)[C@@H]1CCC(C)=C[C@H]1c1c(O)cc(CCCCC)cc1O |  | human, plasma | inhaled, 1.5 to 20 mg | average Cmax | 35.3 ± 41.3 ng/mL
O=c1[nH]c(Cc2ccccn2)nc2c1cnn2C1CCOCC1 |  | male human, plasma | oral, 2 mg, single dose | half-life | 0.995 h
CSCC[C@@H]1NC(=O)[C@H](CC(=O)O)NC(=O)CNC(=O)[C@H](CCCNC(=N)N)NC(=O)[C@H](C)NC(=O)[C@H](CCC(=O)O)NC(=O)[C@H](CCCNC(=N)N)NC(=O)[C@@H]2CSSC[C@@H]3NC(=O)[C@H](CO)NC(=O)[C@H]([C@@H](C)O)NC(=O)[C@@H]4CCCN4C(=O)[C@H](C)NC(=O)[C@H](Cc4c[nH]c5ccccc45)NC(=O)[C@H](CC(=O)O)NC(=O)CNC(=O)[C@H](CCCNC(=N)N)NC(=O)CNC(=O)[C@H](CCC(N)=O)NC(=O)[C@@H]4CCCN4C(=O)[C@@H](NC(=O)CNC(=O)C(C)F)CSSC[C@H](NC(=O)CNC(=O)[C@H](C)NC(=O)[C@H](CC(C)C)NC(=O)[C@H](CSSC[C@@H](C(=O)NCC(N)=O)NC(=O)[C@H]([C@@H](C)O)NC(=O)[C@H](CCCNC(=N)N)NC(=O)[C@@H]4CCCN4C1=O)NC(=O)[C@H](CC(=O)O)NC(=O)[C@H](CO)NC(=O)[C@H](CC(=O)O)NC(=O)[C@H](CCC(N)=O)NC(=O)[C@H](CO)NC3=O)C(=O)N[C@@H](C(C)C)C(=O)N2 (stereo partly shown) [fluorine-18 labelled] |  | nude mice U-87 MG xenograft, kidneys | intravenous, 2.5 h | tissue uptake | 1.1 ± 0.22 %ID/g
Oc1ccc2ccc3cccc4ccc1c2c34 | HPLC-fluorescence | Wistar rat, male, testes | oral, 4 mg/kg PY, 24 h | tissue concentration | 88 ± 36 ng/g
Clc1cc(Cl)c(-c2c(Cl)ccc(Cl)c2Cl)cc1Cl |  | rat liver microsomes | 50 µM, 30 min, remaining parent PCB | enantiomeric fraction | 0.46
Oc1cc(Cl)c(-c2cc(Cl)ccc2Cl)cc1Cl |  | Sprague-Dawley rat, male, serum | subcutaneous implant, 10% in implant, 28 d, high dose group | serum concentration | 164 ± 27 ng/g
COc1ccc(C[C@@H]2NC(=O)[C@H]([C@@H](C)O)NC(=O)[C@@H]3[C@@H]4CCN3C(=O)[C@@H]3Cc5cn(c6ccc(F)cc56)CCCCCCN(Cc5ccc(cc5)CCNC(=O)[C@]5(C)CCCN5C2=O)C(=O)CCC(=O)N[C@@H](C)C(=O)N[C@H](CNC(=O)CCCCC[N+](C)(C)C)C(=O)N[C@@H](Cc2cccc(c2)CNC(=O)CO4)C(=O)N3)cc1 |  | fasted healthy humans, plasma | oral, 300 mg single dose, with 1800 mg Labrasol, geometric mean | CL/F | 1410 mL/min

A few entries again:
Structure (SMILES) | test | system | setting | quantity | result
O[C@H]1CCCN[C@@H]1CCCn1cnc2c(Cl)c(Cl)ccc21 |  | human, plasma | oral, 100 mg single dose, solution, geometric mean | AUC(0-last) | 275 ng·h/mL
Oc1cc(Cl)c(-c2cc(Cl)ccc2Cl)cc1Cl |  | Sprague-Dawley rat, male, serum | subcutaneous implant, 10% in implant, 28 d, high dose group | serum concentration | 164 ± 27 ng/g
CN[C@@](C)(C[18F])C(=O)O |  | SCID mouse U87 xenograft | 120 min post injection | tumour uptake | 5.1 ± 1.1 %ID/g
CC[C@H](C)[C@H](NC(=O)[C@H](CC(C)C)NC(=O)[C@H](Cc1c[nH]c2ccccc12)NC(=O)[C@H](CCC(N)=O)NC(=O)[C@@H](NC(=O)[C@H](Cc1ccccc1)NC(=O)[C@H](C)NC(=O)[C@H](CCCCNC(=O)COCCOCCNC(=O)COCCOCCNC(=O)CC[C@H](NC(=O)CCCCCCCCCCCCCCCCCCC(=O)O)C(=O)O)NC(=O)[C@H](CCC(N)=O)NC(=O)[C@H](C)NC(=O)[C@@H](NC(=O)[C@H](CCCCN)NC(=O)[C@H](CC(=O)O)NC(=O)[C@H](CC(C)C)NC(=O)C(C)(C)NC(=O)[C@@H](NC(=O)[C@H](CO)NC(=O)[C@H](Cc1ccc(O)cc1)NC(=O)[C@H](CC(=O)O)NC(=O)[C@H](CO)NC(=O)[C@@H](NC(=O)[C@H](Cc1ccccc1)NC(=O)[C@@H](NC(=O)CNC(=O)[C@H](CCC(=O)O)NC(=O)C(C)(C)NC(=O)[C@@H](N)Cc1ccc(O)cc1)[C@@H](C)O)[C@@H](C)O)[C@@H](C)CC)[C@@H](C)CC)C(C)C)C(=O)N[C@@H](C)C(=O)NCC(=O)NCC(=O)N1CCC[C@H]1C(=O)N[C@@H](CO)C(=O)N[C@@H](CO)C(=O)NCC(=O)N[C@@H](C)C(=O)N1CCC[C@H]1C(=O)N1CCC[C@H]1C(=O)N1CCC[C@H]1C(=O)N[C@@H](CO)C(N)=O |  | human, severe hepatic impairment | subcutaneous, 5 mg | tmax | 24 h
